Experimental data gathered from unrelated publications.
Compare with care: the assays were run in different laboratories. Several values in a cell are separate wells, animals, samples, runs or records. ± marks the error that the study gave.

| Compound | cell line | assay | test system | conditions | scale | quantity | result |
| --- | --- | --- | --- | --- | --- | --- | --- |
| CCOc1cc(-c2nnc(CCN(C)C)n2C)ccc1Nc1ncc2cc(C)nc(NCC(C)(C)C)c2n1 | CAL-51 | cell growth | – | 72 h | – | GI50 | 0.395 µM |
| COc1ccc(-n2nc(C(C)=O)s/c2=N\N=C(/C)c2ccc(NC(=O)c3ccc(Cl)cc3)cc2)cc1 | HepG2 | – | – | 1.25 µM | – | toxicity | 94.3% |
| CC(C)NCC(O)c1ccc(O)c(O)c1 (centres unmarked) | mouse ventricular cardiomyocytes | – | – | dose not given, 0.231 s | – | sarcomere length | 1.79 µm |
| COc1cc2ncnc(Nc3ccc(Oc4ccccc4)cc3C)c2cc1OC.O=C(O)C(F)(F)F | MeWo (NF1 mutant) | cell viability | – | concentration not given, 72 h, with: trametinib | direction not given | Bliss synergy score | 146% |
| COc1cnc2cccc(N3CCc4c(cc(Cn5ccnc5C)cc4-c4cn(C)nc4C(F)(F)F)C3=O)c2c1 | CAMA-1 | cell growth, inhibitor | – | 120 h | – | EC50 | 7.13 µM |
| C=CC(=O)N1[C@@H](c2ccc3c(c2)OCO3)c2[nH]c3ccccc3c2C[C@H]1C(=O)NC | rat DRG neurons | – | – | 0.01372 µM, 48 h, with: vincristine 40 nM | – | neuron degeneration | 80.1% and 79.1% |
| CC1(C)CC[C@]2(C(=O)O)CC[C@]3(C)C(=CC[C@@H]4[C@@]5(C)CC[C@H](O)C(C)(C)[C@@H]5CC[C@]43C)[C@@H]2C1 | N2a stably expressing human APP695 | ELISA | – | concentration not given | increase | Aβ40 and Aβ42 levels | 15 to 25% |
| COc1ccc(C[C@H](NC(=O)[C@H](C)NC(=O)CN2CCOCC2)C(=O)N[C@@H](Cc2ccccc2)C(=O)C2(C)CO2)cc1 (stereo in doubt) | BT-16 | cell viability, MTT | – | 10 µM, 72 h | – | inhibition | 93.8% |
| Cc1cccc(-c2[nH]c(CNc3ccccc3F)nc2-c2ccc3ncnn3c2)n1 | MM1.S pomalidomide-resistant | XTT | – | 1 µM | – | viability | 70% and 85% and 77% |
| Cc1nc(NC(=O)N2CCC[C@H]2C(N)=O)sc1-c1ccnc(C(C)(C)C(F)(F)F)c1 | CAL-51 | cell growth, CellTiter-Glo | – | 120 h | – | Hill coefficient GR curve | 1.19 |
| C[C@@H]1COCCN1c1cc(C2([S@](C)(=N)=O)CC2)nc(-c2cc[nH]c3nccc2-3)n1 | LoVo | cell growth, MTS | – | 72 h, with: carboplatin 10 µM | – | synergistic concentration | ≥ 0.3 µM |
| CCn1c(=O)c(-c2cc[nH]n2)cc2c(C)nc(N)nc21 | RD | mRNA and protein, IFN-β, qRT-PCR and ELISA | – | 4 µM, 20 h, with: EV71 or poly(I:C) | – | IFN-β production | no effect |
| CC(C)c1nc(CN(C)C(=O)N[C@@H](CCN2CCOCC2)C(=O)N[C@H](CC[C@H](Cc2ccccc2)NC(=O)OCc2cncs2)Cc2ccccc2)cs1 | ΔE-expressing cells | ΔE mislocalization, high-content imaging | – | – | – | maximal efficacy | 82% |
| Nc1ccc(-c2ccc3ncc4ccc(=O)n(-c5cccc(C(F)(F)F)c5)c4c3c2)cn1 | BT-16 | cell viability, MTT | – | 10 µM, 72 h | – | inhibition | 94.2% |
| CS(=O)(=O)N1CCN(Cc2cc3nc(-c4cccc5[nH]ncc45)nc(N4CCOCC4)c3s2)CC1 | PC-3 | immunoblot, measured: AURKB | – | 1 µM, 24 h | – | protein level | decreased |
| CCCCCCOC(=O)[C@]1(O)C[C@@H]2O[C@@]1(C)n1c3ccccc3c3c4c(c5c6ccccc6n2c5c31)C(=O)NC4 | SK-OV-3 | ATP | 2D monolayer culture | 10 µM, 4 days | reference: untreated | relative cell number | 48.1% |
| Cn1cc(-c2ccc(-c3cncc(Cl)c3N3CCC4(CCNC4=O)CC3)cc2)cn1 | COLO 205 | microarray, measured: CDKN1A | – | concentration not given, 2 h, gene set p21 | reference: untreated cells | fold change in expression | 1.51 |
| CCOc1cc(-c2nncn2C)ccc1Nc1ncc2cc(C)nc(N3CC4(CCOCC4)C3)c2n1 | CAL-51 | cell growth | – | 72 h | – | GI50 | 0.13 µM |
| Clc1nc(NCc2ccco2)c2[nH]cnc2n1 | iPSC-derived cardiomyocytes | RNA-seq, measured: ATG13 chr11 exon ending 46664095 | – | unit not given | reference: DMSO minus compound | ΔPSI | 0.25 |
| COc1ccc2cc1Oc1ccc(cc1)C[C@H]1c3cc(c(OC)cc3CCN1C)Oc1c(O)c(OC)cc3c1[C@H](C2)N(C)CC3 | BT-16 | cell viability, MTT | – | 10 µM, 72 h | – | inhibition | 82.3% |
| CCc1cnc(N2CCC(c3nc(COc4ccc(-n5cnnn5)cc4)cs3)CC2)nc1 | HEK-293T | RNA-seq GSEA, measured: HALLMARK_PEROXISOME | – | concentration not given | direction not given | normalized enrichment score | 0.763 |
| Cc1nn(-c2nc3c(F)cc(F)cc3s2)c(O)c1C(c1ccc(C(F)(F)F)cc1)c1c(C)nn(-c2nc3c(F)cc(F)cc3s2)c1O | RAW-ISG | IFN luciferase reporter | – | 20 µM, with: HT-DNA | – | inhibition | 99.9% |

| Compound | cell line | assay | test system | conditions | scale | quantity | result |
| --- | --- | --- | --- | --- | --- | --- | --- |
| [Cl-].[Cl-].[Os+2].c1cnc2c(c1)ccc1cccnc12.c1cnc2c(c1)ccc1cccnc12.c1cnc2c(c1)ccc1cccnc12 | SK-MEL-28 | – | – | red light, 1% O2 hypoxia | reference: dark EC50 over red EC50 | phototherapeutic index | 1 |
| CCn1cc(-c2cc(Cn3ccnc3)cc3c2CCN([C@H](c2cc(OC)ccn2)C2CC2)C3=O)c(C(F)(F)F)n1 | Kasumi 1 | cell growth, inhibitor | – | 120 h | – | EC50 | 12.9 µM |
| Cc1[nH]c2ccccc2c1CCNCc1ccc(/C=C/C(=O)NO)cc1 | C13 | annexin V/PI flow cytometry | – | concentration not given, 48 h | reference: control subtracted | early apoptotic cells | 6.7 ± 2% |
| CN1CCN(c2ccc(C(=O)Nc3n[nH]c4ccc(Cc5cc(F)cc(F)c5)cc34)c(NC3CCOCC3)c2)CC1 | BT-16 | cell viability, MTT | – | 10 µM, 72 h | – | inhibition | 86.3% |
| C=CC(=O)Nc1cc(Nc2nccc(-c3cn(C)c4ccccc34)n2)c(OC)cc1N(C)CCN(C)C | PC-9 | qRT-PCR, measured: mTOR | – | 8 µM, 24 h | reference: control | mRNA level | ~466 fold |
| c1ccc(CNc2nc(NCc3ccccc3)c3ccccc3n2)cc1 | BT-16 | cell viability, MTT | – | 10 µM, 72 h | – | inhibition | 91.3% |
| Cc1cc(Nc2ncc(Cl)c(Nc3ccccc3S(=O)(=O)C(C)C)n2)c(OC(C)C)cc1C1CCNCC1 | CLB-BAR | phosphoproteomics LC-MS/MS, measured: EEF2K phosphorylation | – | 200 nM, 60 min | reference: untreated | log2 fold change | -3.72 |
| COc1cc([C@@H]2c3cc4c(cc3[C@@H](O[C@@H]3O[C@@H]5CO[C@@H](C)O[C@H]5[C@H](O)[C@H]3O)[C@H]3COC(=O)[C@H]23)OCO4)cc(OC)c1O | HepG2 spheroids | flow cytometry | – | 1.7 µM, 96 h | – | G2 phase cells | 57.9 ± 8.41% |
| O=C(O)c1ccc(C2CCCN2Cc2ccc(-c3ccccc3[N+](=O)[O-])o2)cc1 (centres unmarked) | mouse T cells | mixed lymphocyte reaction | – | concentration not given, 7 days | reference: DMSO | CD4+Foxp3+ Treg reduction | ~10% |
| COc1cc2c(c(OC)c1OC)-c1ccc(OC)c(=O)cc1[C@@H](NC(C)=O)CC2 | BT-16 | cell viability, MTT | – | 10 µM, 72 h | – | inhibition | 91.6% |
| CCn1cc(-c2cc(Cn3ccoc3=N)cc3c2CCN([C@@H](C)c2cc(OC)ccn2)C3=O)c(C(F)(F)F)n1 | Kasumi 1 | cell growth, inhibitor | – | 120 h | – | EC50 | 16.8 µM |
| O=C(/C=C/C=C/C=C/C1CCCCC1)NC1=C[C@@](O)(/C=C/C=C/C=C/C(=O)NC2=C(O)CCC2=O)[C@@H]2O[C@@H]2C1=O | NCI-H1299 | cell growth, CellTiter-Glo | – | 78 h | – | GI50 | 19.6 µM |
| CN(C)c1ccc(C(=C2C=CC(=[N+](C)C)C=C2)c2ccc(N(C)C)cc2)cc1 | BT-16 | cell viability, MTT | – | 10 µM, 72 h | – | inhibition | 92.9% |
| c1cc(CN2CCCNCCNCCCNCC2)ccc1CN1CCCNCCNCCCNCC1 | HepG2-C8 | ARE reporter gene | – | concentration not given, 24 h | – | activity | inactive |
| Cc1c(C)c2c(c(C)c1O)CCC(C)(COc1ccc(CC3SC(=O)NC3=O)cc1)O2 (centres unmarked) | HepG2 | high content imaging, measured: nuclear size | – | 24 h, representative mode | – | point of departure | 37.2 µM |
| COC(=O)Nc1nc2ccc(C(=O)c3ccccc3)cc2[nH]1 | BT-16 | cell viability, MTT | – | 10 µM, 72 h | – | inhibition | 87.7% |
| CC(C)C[C@H](NC(=O)[C@H](CO)NC(=O)[C@@H](NC(=O)[C@@H]1CCCN1C(=O)[C@@H](N)CCCCN)C(C)C)C(=O)N[C@@H](CO)C(=O)N[C@@H](Cc1ccc(O)cc1)C(=O)N[C@@H](CCCNC(=N)N)C(=O)NCC(=O)NCC(=O)N[C@H](CC(C)C)C(=O)NCC(=O)N[C@H](C)C(=O)N[C@H](CO)C(=O)N[C@H](Cc1c[nH]c2ccccc12)C(=O)N[C@H](Cc1c[nH]cn1)C(=O)N[C@H](CCCNC(=N)N)C(=O)N[C@@H](Cc1ccc2ccccc2c1)C(=O)N[C@@H](CCCNC(=N)N)C(=O)N[C@@H](CCCNC(=N)N)C(N)=O | SUP-T1 | Transwell migration | – | 3 h, 37 °C | – | optimal migration-promoting concentration | 0.5 µM |
| C[C@]12CCCN1CC1=NNC(=O)c3cc(F)cc4[nH]c2c1c34 | OUMS-23 | – | – | with: temozolomide | – | EC50 | 0.2 µM |
| Nc1cccc2c1C(=O)N(C1CCC(=O)NC1=O)C2=O (centres unmarked) | MM1.S | XTT | – | 0.8 µM | – | viability | 38% and 29% and 33% |
| Cn1c(Nc2nc3ccc(C(F)(F)F)cc3s2)nc2cc(C(=O)NCCOCCO)ccc21 | SH-SY5Y | RNA-seq, measured: THBS1 mRNA | – | 5 µM, 5 h | reference: untreated cells | fold change | 2.05 |
| Nc1ncnc2c1ncn2[C@@H]1O[C@H](CO)[C@@H](O)[C@H]1O | activated human T cells | measured: ATP | – | 50 µM | reference: DMSO | log2 fold change | 1.6 and 1.2 and 2.2 |
| FC(F)(F)c1nc2c(-c3ccc(Cl)cc3)ccnc2[nH]1 | L6 myoblasts | oxygen consumption rate, Seahorse XF | – | – | reference: BAM15 maximal respiration | Emax | 6 to 22% |
